# Assay results collected from several papers.
# Several values in a cell are separate wells, animals, samples, runs or records. Numbers after ± are the reported error.
Compound,cell line,test,conditions,IC50
CC(=O)OCC1OC(n2cnc3c(Cl)nc(Cl)nc32)C2CC=CCC12 (mixture of isomers),"PHA-stimulated human PBM cells, uninfected",cytotoxicity,6 days,43.1 µM
CC(=O)Oc1ccc(/C=C/C(=O)Nc2nc(=O)n([C@@H]3O[C@H](C)[C@@H](OC(C)=O)[C@H]3OC(C)=O)cc2F)cc1OC(C)=O,NHDF,MTT,"72 h, 10% FBS",121 ± 4.32 µM
CCCCn1cc(C(=O)O)c(=O)c2cc(F)c(Nc3cccc(OC)c3)c([N+](=O)[O-])c21,A375-S2,"cell growth or viability, SRB",,406 µM
CC(=O)Nc1ccn(C2OC(COC(C)=O)C3CC=CCC32)c(=O)n1 (mixture of isomers),"PHA-stimulated human PBM cells, uninfected",cytotoxicity,6 days,> 100 µM
Cc1ccc(-c2nn(-c3ccccc3)cc2/C=C(\C#N)c2nc3ccccc3[nH]2)cc1,MRC5,"cell growth or viability, ATP luminescence",72 h,> 100 µM
COc1ccc(CC2COC(=O)C2Cc2ccc3c(c2)OCO3)cc1OC (mixture of isomers),"A2780cis, cisplatin-resistant",cytotoxicity,72 h,3.25 ± 0.62 µM
N#C/C(=C\c1cn(-c2ccccc2)nc1-c1ccccc1)c1nc2ccccc2[nH]1,MRC5,"cell growth or viability, ATP luminescence",72 h,> 100 µM
CCCCn1cc(C(=O)O)c(=O)c2cc(F)c3c(nnn3-c3ccc(OC)cc3)c21,A375-S2,"cell growth, SRB",72 h,39.4 ± 7.4 µg/mL
Nc1ccn(C2OC(CO)C3CC=CCC32)c(=O)n1 (mixture of isomers),"PHA-stimulated human PBM cells, uninfected",cytotoxicity,6 days,> 100 µM
CCCCn1cc(C(=O)O)c(=O)c2cc(F)c(N)c([N+](=O)[O-])c21,MCF7,"cell growth, SRB",72 h,171 ± 15.8 µg/mL
CC(C)=CCC1=C(O)c2c(occ(-c3ccc(O)cc3)c2=O)C(CC=C(C)C)(CC=C(C)C)C1=O,NHDF,"cell growth or viability, MTT",24 h,17.5 µM
CCCCn1cc(C(=O)O)c(=O)c2cc(F)c(Nc3ccccc3OC)c([N+](=O)[O-])c21,A375-S2,"cell growth, SRB",72 h,74.6 ± 9.14 µg/mL
CC(=O)Oc1ccc(/C=C/C(=O)Nc2nc(=O)n([C@@H]3O[C@H](C)[C@@H](OC(C)=O)[C@H]3OC(C)=O)cc2F)cc1,NHDF,"viability, MTT",72 h,96.5 ± 5.79 µM
CC(C)=CCc1c2c(c(O)c3c(=O)c(-c4ccc(O)cc4)coc13)C=CC(C)(C)O2,NHDF,"cell growth or viability, MTT",24 h,18.2 µM
O=[N+]([O-])c1c(Br)c(Cl)c2cccnc2c1O,L02,"cell growth or viability, CCK-8",48 h,~49.6 µg/mL
N#C/C(=C\c1cn(-c2ccccc2)nc1-c1ccc([N+](=O)[O-])cc1)c1nc2ccccc2[nH]1,MRC5,"cell growth or viability, ATP luminescence",72 h,> 100 µM
Nc1ncnc2c1ncn2C1OC(CO)C2CC=CCC21 (mixture of isomers),"PHA-stimulated human PBM cells, uninfected",cytotoxicity,6 days,> 100 µM
CC(=O)Oc1ccc(/C=C/C(=O)Nc2nc(=O)n([C@@H]3O[C@H](C)[C@@H](OC(C)=O)[C@H]3OC(C)=O)cc2F)c(OC(C)=O)c1,NHDF,MTT,"72 h, 10% FBS",116 ± 2.71 µM
CCCCn1cc(C(=O)O)c(=O)c2cc(F)c(Nc3cc(OC)c(OC)c(OC)c3)c([N+](=O)[O-])c21,A375-S2,"cell growth, SRB",72 h,27.5 ± 3.37 µg/mL
COc1cc(OC)c(-c2coc3c(CC=C(C)C)c(OC)cc(O)c3c2=O)cc1OC,NHDF,"cell growth or viability, MTT",24 h,> 100 µM
CCCCn1cc(C(=O)O)c(=O)c2cc(F)c3c(nnn3-c3ccccc3OC)c21,A375-S2,"cell growth or viability, SRB",,30.6 µM and 30.8 µM and < 50 µM
O=C(/C=C/c1ccccc1)Oc1ccc2c(c1)O/C(=C\C=C\c1ccccc1)C2=O,HEK-293T,"cell growth or viability, MTT",72 h,37.1 µM

# Some of these lines once more:
Compound,cell line,test,conditions,IC50
CC(=O)Oc1ccc(/C=C/C(=O)Nc2nc(=O)n([C@@H]3O[C@H](C)[C@@H](OC(C)=O)[C@H]3OC(C)=O)cc2F)cc1,NHDF,"viability, MTT",72 h,96.5 ± 5.79 µM
CC(C)=CCc1c2c(c(O)c3c(=O)c(-c4ccc(O)cc4)coc13)C=CC(C)(C)O2,NHDF,"cell growth or viability, MTT",24 h,18.2 µM
